# Assay results gathered from unrelated publications.
# Every numbered part comes from another study and shows a few of its results, in no order. Positions count from the first letter of the parent shown.

# Sample 1
# Target: ABI1, truncated, D143A, DHFR fusion (Arabidopsis thaliana)
# Technique: DHFR PCA, deep sequencing
# Medium: yeast
# Notes: methotrexate growth selection, single substitutions
# Together with: (+)-ABA 58 µM
# Baseline: wild-type fitted maximum
# Direction: higher = stronger binding
# Parent: PYL1, truncated, DHFR fusion (Arabidopsis thaliana); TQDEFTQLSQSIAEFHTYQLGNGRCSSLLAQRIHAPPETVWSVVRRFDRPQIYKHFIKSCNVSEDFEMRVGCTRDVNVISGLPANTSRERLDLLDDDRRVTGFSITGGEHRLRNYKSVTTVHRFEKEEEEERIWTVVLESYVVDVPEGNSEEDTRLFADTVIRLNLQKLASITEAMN; partner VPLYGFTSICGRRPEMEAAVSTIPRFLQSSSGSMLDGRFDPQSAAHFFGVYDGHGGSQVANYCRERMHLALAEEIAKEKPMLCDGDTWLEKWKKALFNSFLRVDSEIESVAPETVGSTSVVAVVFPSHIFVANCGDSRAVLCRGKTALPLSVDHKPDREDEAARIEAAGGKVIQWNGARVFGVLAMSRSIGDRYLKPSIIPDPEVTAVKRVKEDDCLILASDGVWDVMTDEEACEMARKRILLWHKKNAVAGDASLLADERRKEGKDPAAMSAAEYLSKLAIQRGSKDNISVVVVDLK
Substitution,relative binding score
N85H,88.4%
E64A,87.8%
T86Y,75.3%
H16G,-7.49%
L82N,0.618%
N61T,91.8%
G107A,71%
L29E,8.7%
E38Y,38.8%
H16K,-31.9%
R69P,18.3%
D153Q,57.8%
E147F,76.6%
L164T,91%
V62P,39%
Q7R,89.5%

# Sample 2
# Target: CCND3, cyclin fold, Cln2 fusion (human)
# Technique: yeast growth competition, sequencing
# Medium: yeast
# Notes: weak parent motif
# Baseline: not given
# Direction: higher = stronger binding
# Parent: CDKN1A docking peptide (human); SKACRRLFGPVDS; partner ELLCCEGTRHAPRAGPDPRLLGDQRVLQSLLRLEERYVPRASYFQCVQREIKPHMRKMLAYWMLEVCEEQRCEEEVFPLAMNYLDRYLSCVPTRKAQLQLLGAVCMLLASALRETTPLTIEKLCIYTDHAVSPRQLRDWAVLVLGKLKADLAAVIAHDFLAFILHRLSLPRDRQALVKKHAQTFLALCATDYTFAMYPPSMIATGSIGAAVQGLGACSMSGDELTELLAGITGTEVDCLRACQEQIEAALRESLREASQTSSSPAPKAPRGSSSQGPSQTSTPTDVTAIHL
Substitution,normalised enrichment score
STACRRLFGPVDS [K2T],0.592
SKACRRVFGPVDS [L7V],0.32
SKACRRLCGPVDS [F8C],0.171
SKACRRLHGPVDS [F8H],0.608
SKACRRLFGPWDS [V11W],0.765
SKACRRLSGPVDS [F8S],0.371
SKACRRCFGPVDS [L7C],0.286
SKACRRLFHPVDS [G9H],0.246
SKACRLLFGPVDS [R6L],0.403
SKACRRLFGPVTS [D12T],0.573
SKAERRLFGPVDS [C4E],-0.0623
SKACRMLFGPVDS [R6M],1.09
SKACRRLFGPYDS [V11Y],0.342
SKACRRLFGVVDS [P10V],0.298
SKACRRLFGPVKS [D12K],0.12
SKACKRLFGPVDS [R5K],0.274
SKACRRLFGPTDS [V11T],0.375
SKACRALFGPVDS [R6A],0.104
SKLCRRLFGPVDS [A3L],-0.286
SKAWRRLFGPVDS [C4W],-0.133
SKACRRHFGPVDS [L7H],0.359

# Sample 3
# Target: Interferon regulatory factor 5, full length, phosphomimetic (IRF5, Homo sapiens, UniProt Q13568-2, residues 1-514, K96S/S451D/S453D/S456D/S462D)
# Technique: protein-binding microarray
# Form: double-stranded DNA, one strand shown
# Medium: in vitro
# Concentration: 250 nM
# Notes: 60-bp whole probe
# Together with: salmon DNA 0.4 mg/ml
# Baseline: random background probes
# Direction: higher = stronger binding
# All sequences stand within: GCCTAGCAC … GTCTTGATTCGCTTGACGCTGCTG
Sequence,log fluorescence [z-score]
GACGCACTGAGTTTCGAGACGTGCTAG,4.04
TTAGATCTCAGGATCGATTAGTGCTAG,0.17
TTAGATTTCGGGTTTCGATTGGTGCTA,8.43
GACGGTTTCGGTAACGGGACGTGCTAG,8.55
TTAGGACTGCTTCTCCTTCAGTGCTAG,-0.515
GACGGTATCGACTATTGGGACGTGCTA,2.29
GAAGATATCAGTATCGAGACGTGCTAG,2.99
GCCATTATGAGTCTTGAAGAGTGCTAG,-0.429
TTAGAACTGAGTCACGATTAGTGCTAG,-0.361
TCAATTTTCGTTTTTATACTGTGCTAG,5.62
GACGAACTGAGGTTCGAGACGTGCTAG,-0.483
GACGGACTGATACTGCTGACGTGCTAG,-0.0827
TTGGATTTCGGGTTTCGATTAGTGCTA,7.74
TTAGGTATCGGGTATGGGTTAGTGCTA,3.64
CTCGCTATGTTGTCCAGGCTGGTGCTA,-0.542
TCACTTTTCATTACTGCACTGTGCTAG,1.97
TTAGGTTTCGCTTTCGGTTAGTGCTAG,11.8
TTAGATTCCGGTTTCGGTTAGTGCTAG,9.28
GACGGTAGCGGTTTCGGGACGTGCTAG,2.36
TACGGTATCGGGTATCGGGACGTGCTA,3.38
GACGGTATCGACTTTCGGGGCGTGCTA,5.7
TCATAAGCAAAAATGATACTGTGCTAG,0.576
TTAGGACTGGACATTCGGTTAGTGCTA,0.282
GACGGACTGGACTTTCGGCACGTGCTA,4.59
GACGGAGTGGACTTTCGGGACGTGCTA,4.53

# Sample 4
# Target: RNA binding protein fox-1 homolog 2, RRM domain, GST-SBP tag (RBFOX2, Homo sapiens, UniProt O43251-10, residues 100-194)
# Technique: RNA Bind-n-Seq
# Form: RNA
# Medium: in vitro
# Concentration: 365 nM
# Notes: natural RNA segment, single round, ends assumed
# Baseline: no-protein control
# Direction: higher = stronger binding
# All sequences stand within: GGGAGUUCUACAGUCCGACGAUC … UGGAAUUCUCGGGUGCCAA
# Construct (chain): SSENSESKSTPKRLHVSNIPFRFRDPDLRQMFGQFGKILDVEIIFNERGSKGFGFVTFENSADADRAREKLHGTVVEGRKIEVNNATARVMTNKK
Sequence,RBNS enrichment (R)
AGUUACCAAGAGAAGCUGGAGGGAUACCUCUGAGUGACUGCUGUGUUUCUUCUAUUGUAGACACCAAGUCUCCCUGAGAUUCCUGAUGGGGUAUUACCUACCAAGAUAAU,0.505
ACCAUACCUUUUUGCACUAUGGGCACUAACCACCCUGAAACUUCCUGCGGUAGCUCCCUCCCUUCAGAGUUACAUCAUUAUCCUGACUCUGUGUAGGUAAAUUUCCGUGA,0.976
AGCCCUCAAGAUACCCUUGUCCCUGAAGUAGGGACUAACUAUAGCACAAGAUAGUAUGUGCCAAUAUAGCCAAGAUAAUAUGUGAAAUGGUCUUUCUAAAUGAUUAAAGA,0.34
AUUAACAUCAUUGGUCAUUUUUAAAAAAAAGAAAAUAAGAAAAAACCGCAGAAGAAAUGCAUUCACACAGUCGCAGAGAUGCAGGCCUUGCCAGUGGUGUGCCGGGCGCG,0.491
GAAUUAAUCACUAUAGGAUUAAGCCUUUAUCCUAUAGUGUCCAGUUUUUCUCUACUUCUGAAAUGAGUUGUUCACCAGUAUUAUCUUCUCCCAUCCUAAGCUGUUCAUUU,0.502
AGAGAAGCCAUCUCUCAAGAGGCAAAUAGCAUGAUCUACAUAGUUAAUACAUCUACCUUCCCUUAUACUUUCUUCUAAGGCCUGAUUUUCUUUGCUUGGGAAGUGGAUUA,0.948
CCUCACAAUGUUGGGAUUACAGGUAUAAGCCACUGCACACGGCCUUACUAUGCUAUCAAUUCCAUAUAUGGAAAGGUGUUUUCCCUUUCAGAGCUCUUUAAAGCUCUGCA,0.599
CGUUCAAGUUCUAGUGAGCAACAUGUUCAACAACCGCCAGCACAGCAACCUGGCCAGCCUGAGGUCUUCCAGGAGAUGCUGUCCAUGCUGGGAGAUCAGAGCAACAGCUA,0.266
GCCACGUGCCAGGCCCGGGGCUGGCGGCUACUCAGCAGCCCUCCUCACCCCGUCUGGGGUUCAGCCCCUCCUCUGCCACCUCCCCUAUCCACCCAGCCCAUUCUCUCUCC,0.545
UGACUUUUGAAUUACAGAGAUAUAAAUGAAGUAUUAUCUGUAAAAAUUGUUAUAAUUAGAGUUGUGAUACAGAGUAUAUUUCCAUUCAGACAAUAUAUCAUAACUUAAUA,0.552
CCCUUCCUUGUAGCCUUUUGACUUUCAUUGGAAAUUAGGAUGUAAAUCUGCUCAGGAGACCUGGAGGAGCAGAGGAUAAUUAGCAUCUCAGGUUAAGUGUGAGUAAUCUG,0.475
AGAACCGAGUGCCUAUGAGGACAGUGUCCGCCCUGCCCUCCGCAACGUGCAGUCCCUGGGCACGGCGGGCCCUGCCAUGUGCUGGUAACGCAUGCCUGGGCCCUGCUGGG,2.57

# A few entries again (sample 3):
Sequence,log fluorescence [z-score]
GACGCACTGAGTTTCGAGACGTGCTAG,4.04
TTAGATCTCAGGATCGATTAGTGCTAG,0.17
TTAGATTTCGGGTTTCGATTGGTGCTA,8.43
GACGGTTTCGGTAACGGGACGTGCTAG,8.55
TTAGGACTGCTTCTCCTTCAGTGCTAG,-0.515
GACGGTATCGACTATTGGGACGTGCTA,2.29
GAAGATATCAGTATCGAGACGTGCTAG,2.99
GCCATTATGAGTCTTGAAGAGTGCTAG,-0.429
TTAGAACTGAGTCACGATTAGTGCTAG,-0.361
